# Measured values from different studies.
# Protocols differ between the studies behind these lines. ± gives the spread as reported.
SMILES,system,setting,scale,tumour growth inhibition [%]
C=CC(=O)Nc1cc(Nc2ncc(C(=O)OC(C)C)c(-c3cn(C)c4ccccc34)n2)c(OC)cc1N(C)CCN(C)C,"NCI-H2073 EGFR SVD knock-in xenograft, BALB/c nude mice","30 mg/kg once daily, 21 days",,95.2
CCNc1nc2c(c(N3CC(=O)Nc4cc(OC)ccc43)n1)CCC2,"mice, A-375/TxR xenograft","intravenous, 4 mg/kg twice weekly, 3 weeks",,76.6
CCCCC(=O)Nc1ccc(-c2ccc3ncn(CCC)c(=O)c3c2)cn1,"mice, HCC827 xenograft","oral, 20 mg/kg daily, six days per week, three weeks",baseline: vehicle,62.8
NCc1cc2c(cc1F)C(=O)N(C1CCC(=O)NC1=O)C2 (centres unmarked),"mice, HCC PDX models","oral, 100 mg/kg twice daily, four additional models",,16 to 33
C=CCn1c(=O)c2cnc(Nc3ccc(N4CCN(C)CC4)cc3)nc2n1-c1ccc2c(n1)[C@@](O)(CC)CC2,"SW-620 xenograft, BALB/c nude mice","oral, 80 mg/kg, day 20, once daily x 21",,42.5
C[C@@H]1COCCN1c1cc([C@]2(O)C[C@H]3CC[C@@H](C2)O3)c2cnn(-c3cc[nH]n3)c2n1,LoVo xenograft mice,"3 mg/kg once daily for 7 days, day 17",,9.07 ± 16
COc1ccc(OCc2ccc([N+](=O)[O-])cc2)cc1-c1c[nH]c2ncc(-c3cncc(C(=O)N(C)C)c3)cc12,"NSG mice, K562 xenograft","ip, 0.0268 mmol/kg once daily, 16 days",,57
NC1(C(=O)N[C@@H](CCO)c2ccc(Cl)cc2)CCN(c2ncnc3[nH]ccc23)CC1,"MDA-MB-468 xenograft, mice",25 mg/kg,baseline: vehicle,50

# Some of these lines once more:
SMILES,system,setting,scale,tumour growth inhibition [%]
NCc1cc2c(cc1F)C(=O)N(C1CCC(=O)NC1=O)C2 (centres unmarked),"mice, HCC PDX models","oral, 100 mg/kg twice daily, four additional models",,16 to 33
